Measured values gathered from unrelated publications.
Compare with care: the assays were run in different laboratories. ± gives the spread as reported.

Structure (SMILES) | test | test system | setting | scale | quantity | value
N=C(N)NCCC[C@@H]1NC(=O)[C@H](CCCCNC(=O)CCOCCOCCOCCOCCNC(=O)CC[C@H](NC(=O)CCOCCOCCOCCOCCNC(=O)CC[C@H](NC(=O)CN2CCN(CC(=O)O)CCN(CC(=O)O)CCN(CC(=O)O)CC2)C(=O)NCCOCCOCCOCCOCCC(=O)N[C@@H](CCC(=O)NCCOCCOCCOCCOCCC(=O)NCCCC[C@@H]2NC(=O)[C@@H](Cc3ccccc3)NC(=O)[C@H](CC(=O)O)NC(=O)CNC(=O)[C@H](CCCNC(=N)N)NC2=O)C(=O)NCCOCCOCCOCCOCCC(=O)NCCCC[C@@H]2NC(=O)[C@@H](Cc3ccccc3)NC(=O)[C@H](CC(=O)O)NC(=O)CNC(=O)[C@H](CCCNC(=N)N)NC2=O)C(=O)NCCOCCOCCOCCOCCC(=O)NCCCC[C@@H]2NC(=O)[C@@H](Cc3ccccc3)NC(=O)[C@H](CC(=O)O)NC(=O)CNC(=O)[C@H](CCCNC(=N)N)NC2=O)NC(=O)[C@@H](Cc2ccccc2)NC(=O)[C@H](CC(=O)O)NC(=O)CNC1=O [indium-111 labelled] |  | athymic nude mice, female, U-87 MG glioma xenograft, U-87 MG tumour | intravenous, 3 µCi, 0.5 h |  | tissue uptake | 10.5 ± 1.83 %ID/g
CSCC[C@H](NC(=O)[C@H](CC(C)C)NC(=O)[C@H](Cc1c[nH]cn1)NC(=O)CNC(=O)[C@@H](NC(=O)[C@H](C)NC(=O)[C@H](Cc1c[nH]c2ccccc12)NC(=O)[C@H](CCC(N)=O)NC(=O)CCCCCNC(=O)CNC(=O)CNC(=O)CNC(=O)CSC(C)=O)C(C)C)C(N)=O [technetium-99m labelled] |  | nude mouse, PC-3 xenograft, muscle | 90 min |  | tissue uptake | 0.25 ± 0.04 %ID/g
CC(C)C[C@H](NC(=O)[C@@H]1CCCN1C(=O)[C@H](CCCCN)NC(=O)[C@@H](N)CO)C(=O)N1CCC[C@H]1C(=O)N[C@@H](CCC(=O)O)C(=O)N[C@H](C(=O)N[C@H](C(=O)N[C@@H](CC(=O)O)C(=O)N[C@@H](CCC(=O)O)C(=O)N[C@@H](Cc1ccc(O)cc1)C(=O)N[C@@H](Cc1cn(CCOCCOCCOCCNC(=O)CCc2ccc(O)c(CN(CCN(CC(=O)O)Cc3cc(CCC(=O)NCCCC[C@H](NC(=O)N[C@@H](CCC(=O)O)C(=O)O)C(=O)O)ccc3O)CC(=O)O)c2)nn1)C(=O)O)[C@@H](C)O)C(C)C [gallium-68 labelled] |  | NMRI nu/nu mice, LNCaP tumour, spleen | 10 MBq, high molar activity |  | standardized uptake value | 0.85 g/g
CCCC[C@H](NC(=O)CCCCCCCNC(=O)c1ccc(NN)nc1)C(=O)N[C@H]1CC(=O)NCCCC[C@@H](C(N)=O)NC(=O)[C@H](Cc2c[nH]c3ccccc23)NC(=O)[C@H](CCCNC(=N)N)NC(=O)[C@@H](Cc2ccccc2)NC(=O)[C@H](Cc2c[nH]cn2)NC1=O [technetium-99m labelled] |  | C57 mouse, B16/F1 melanoma, pancreas | intravenous, 0.5 h |  | uptake | 0.97 ± 0.4 %ID/g
CCCC[C@H](NC(=O)CNC(=O)CNC(=O)c1ccc(NN)nc1)C(=O)N[C@H]1CC(=O)NCCCC[C@@H](C(N)=O)NC(=O)[C@H](Cc2c[nH]c3ccccc23)NC(=O)[C@H](CCCNC(=N)N)NC(=O)[C@@H](Cc2ccccc2)NC(=O)[C@H](Cc2c[nH]cn2)NC1=O [technetium-99m labelled] |  | C57 mouse, B16/F1 melanoma, heart | 2 h, added: NDP-MSH 6.07 nmol blockade |  | uptake | 0.1 ± 0.05 %ID/g
N=C(N)NCCC[C@@H]1NC(=O)[C@H](CCCCNC(=O)CC[C@H](NC(=O)CCOCCOCCOCCOCCNC(=O)CN2CCN(CC(=O)O)CCN(CC(=O)O)CCN(CC(=O)O)CC2)C(=O)NCCCC[C@@H]2NC(=O)[C@@H](Cc3ccccc3)NC(=O)[C@H](CC(=O)O)NC(=O)CNC(=O)[C@H](CCCNC(=N)N)NC2=O)NC(=O)[C@@H](Cc2ccccc2)NC(=O)[C@H](CC(=O)O)NC(=O)CNC1=O [indium-111 labelled] |  | female athymic nude mice, spleen | intravenous, 3 µCi, 0.5 h, U-87 MG glioma xenograft |  | tissue uptake | 2.01 ± 0.43 %ID/g
CCCCC/C=C\C/C=C\CCCCCCCC(=O)OC[C@H](NC(=O)[C@H](Cc1c[nH]c2ccccc12)NC(=O)[C@H](Cc1c[nH]cn1)NC(=O)[C@@H]1CCC(=O)N1)C(=O)N[C@@H](Cc1ccc(O)cc1)C(=O)N[C@H](CC(C)C)C(=O)N[C@@H](CC(C)C)C(=O)N[C@@H](CCCNC(=N)N)C(=O)N1CCC[C@H]1C(=O)NCC | HPLC | human plasma | 1 mg/mL, 4 weeks, 37 °C |  | conversion to leucine | 85.5%
N=C(N)NCCC[C@@H]1NC(=O)[C@H](CCCCNC(=O)CNC(=O)CNC(=O)CNC(=O)CC[C@H](NC(=O)CCOCCOCCOCCOCCNC(=O)CC[C@H](NC(=O)CN2CCN(CC(=O)O)CCN(CC(=O)O)CCN(CC(=O)O)CC2)C(=O)NCCOCCOCCOCCOCCC(=O)N[C@@H](CCC(=O)NCC(=O)NCC(=O)NCC(=O)NCCCC[C@@H]2NC(=O)[C@@H](Cc3ccccc3)NC(=O)[C@H](CC(=O)O)NC(=O)CNC(=O)[C@H](CCCNC(=N)N)NC2=O)C(=O)NCC(=O)NCC(=O)NCC(=O)NCCCC[C@@H]2NC(=O)[C@@H](Cc3ccccc3)NC(=O)[C@H](CC(=O)O)NC(=O)CNC(=O)[C@H](CCCNC(=N)N)NC2=O)C(=O)NCC(=O)NCC(=O)NCC(=O)NCCCC[C@@H]2NC(=O)[C@@H](Cc3ccccc3)NC(=O)[C@H](CC(=O)O)NC(=O)CNC(=O)[C@H](CCCNC(=N)N)NC2=O)NC(=O)[C@@H](Cc2ccccc2)NC(=O)[C@H](CC(=O)O)NC(=O)CNC1=O [indium-111 labelled] |  | female athymic nude mice, liver | intravenous, 3 µCi, 1 h, U-87 MG glioma xenograft |  | tissue uptake | 2.36 ± 0.27 %ID/g
N=C(N)NCCC[C@@H]1NC(=O)[C@H](CCCCNC(=O)CNC(=O)CNC(=O)CNC(=O)CC[C@H](NC(=O)CNC(=O)CNC(=O)CNC(=O)c2ccc(NN=Cc3ccccc3S(=O)(=O)O)nc2)C(=O)NCC(=O)NCC(=O)NCC(=O)NCCCC[C@@H]2NC(=O)[C@@H](Cc3ccccc3)NC(=O)[C@H](CC(=O)O)NC(=O)CNC(=O)[C@H](CCCNC(=N)N)NC2=O)NC(=O)[C@@H](Cc2ccccc2)NC(=O)[C@H](CC(=O)O)NC(=O)CNC1=O [technetium-99m labelled] |  | athymic nu/nu mouse, female, MDA-MB-435 xenograft, muscle | intravenous, 30 min |  | tissue uptake | 2.33 ± 0.61 %ID/g
C=Cc1c(C)c2cc3nc(c4c5[nH]c(cc6nc(cc1[nH]2)C(C)=C6CC)c(C)c5C(=O)C4)[C@@H](CCC(=O)NCC(=O)N1CCC[C@H]1C(=O)N[C@@H](CC(C)C)C(=O)NCC(=O)N[C@@H](Cc1ccccc1)C(=O)N[C@@H](CCCNC(=N)N)C(=O)N[C@H](C(=O)NCC(=O)N[C@@H](CCCCNC(=O)CCCN(C)c1ccc(/N=N/c2ccc4nc5ccc(N(CC)CC)cc5[n+](-c5ccccc5)c4c2)cc1)C(N)=O)C(C)C)[C@@H]3C |  | C57BL/6J mouse, DMM osteoarthritis model, knee articular cartilage | intra-articular, 6 h | baseline: cartilage thickness | penetration depth | ~50%
